Measured values from different studies.
Every numbered part comes from another study and shows a few of its results, in no order.

Set 1
Target: Centromere-binding protein 1, full length, N-terminal tag (CBF1, Saccharomyces cerevisiae, UniProt P17106, residues 1-351)
Chain of UniProt P17106 (whole entry, looked up): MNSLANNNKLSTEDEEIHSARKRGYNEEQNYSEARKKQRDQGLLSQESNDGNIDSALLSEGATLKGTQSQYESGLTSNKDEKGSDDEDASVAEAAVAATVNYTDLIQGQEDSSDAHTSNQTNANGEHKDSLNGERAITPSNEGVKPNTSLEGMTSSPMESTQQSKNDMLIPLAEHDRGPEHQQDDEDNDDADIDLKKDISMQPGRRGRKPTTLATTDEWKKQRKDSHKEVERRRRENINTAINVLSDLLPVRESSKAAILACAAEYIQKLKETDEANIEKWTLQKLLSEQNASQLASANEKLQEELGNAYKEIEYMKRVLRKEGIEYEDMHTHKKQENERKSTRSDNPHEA
Technique: protein-binding microarray
Molecule type: double-stranded DNA, one strand shown
Matrix: in vitro
Tested at: 0.8 µM
Notes: whole 60-bp probe, no competitor
Direction: higher = stronger binding
Shared flanks, not repeated: … GTCTTGATTCGCTTGACGCTGCTG
Sequence	fluorescence intensity [a.u.]
GAAATCGCTTCGGGATTCGTGATCATCTGGCTATAG	726
CTAAGGATTTATAGGCGCGTGCGTGCAGCCTTATTC	799
CCTAACTACTATAAATACCTGATATAGCTTCGTACA	499
CTATATAAATATAGTCAGATGAGTGCTTCATTTTTC	584
CTATACATATACATACACGCAATGAGAACCCTATTC	542
GAACGTAAAGTACATCATGTTTACCAGTTTAAATAG	542
CTAGTTCTATGCGAAAACGTGCTAATTTAATATTTC	1150
GAATCTATAATTATGCAGGTGATGGGGTATCGATAG	710
CCTAACTACTATATTAATGTGCAATAGCTTCGTACA	498
CTATAAGGCTCTACACACGTTTACGATGATATTTTC	538
GAAAAATGTGTTGAAAACGTGCTAAACAACAATTAG	786
GAAAACGTTAACACACATGTGCTTCTTTATTGTTAG	1020
CTAGCTAATGAGAAAAACACGGGTATACCGTCATTC	527
GAATACTGTCCCTCCCCCGTGCACAGCATGTTGTAG	633
CTATAAACAAAATGCCACGTTCTGGCCTGATATTTC	545
CTACAATCCCGGGATGACGTCAAGATAGACAGTTTC	505
CTACCATTTGTCAAGCACATGCTTAATCCAACATTC	961
CTACCTTGCATACACGTGAATATGTCTATTTTATTC	2710
CTACGCAGAAAATTTCAGGTGAGATAAGGTGCGTTC	519

Set 2
Target: Histone acetyltransferase KAT6A, winged helix 2, GST fusion (KAT6A, Homo sapiens, UniProt Q92794, residues 85-181)
Technique: protein binding microarray
Molecule type: double-stranded DNA, one strand shown
Matrix: in vitro
Tested at: not given
Notes: 8-mer, flanks averaged, mean of 2 arrays, mostly near background
Baseline: not given
Direction: higher = stronger binding
Construct (chain): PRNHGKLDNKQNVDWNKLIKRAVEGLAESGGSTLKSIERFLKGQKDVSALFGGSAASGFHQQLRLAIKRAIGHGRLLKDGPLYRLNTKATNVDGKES
Sequence	E-score
CAACGTGA	-0.3
CATCCTCC	-0.129
AGAAACCT	0.0438
CCAGTGCC	0.0751
CCTTTTCA	0.00013
TAATGATA	0.0806
AAGTGCGG	0.0367
AGTGCTTA	-0.00352
TAGCGCAA	0.0284
GCAGTCTA	-0.114
AGCGTACG	-0.109
CGTTTAAG	-0.0469
CCGATACG	-0.0978
CGACCTAA	0.147
ACATTTAT	-0.305
CAGAAACC	0.111
AACCAGCT	0.156

Set 3
Target: Interferon regulatory factor 5, full length, phosphomimetic (IRF5, Homo sapiens, UniProt Q13568-2, residues 1-514, S451D/S453D/S456D/S462D)
Technique: protein-binding microarray
Molecule type: double-stranded DNA, one strand shown
Matrix: in vitro
Tested at: 940 nM top
Notes: 60-bp whole probe
With: salmon DNA 0.4 mg/ml
Baseline: random background probes
Direction: higher = stronger binding
Shared flanks, not repeated: GCCTAGCAC … GTCTTGATTCGCTTGACGCTGCTG
Sequence	fitted relative affinity [z-score]
AACGGTTTCGGTTTCGGGACGTGCTAG	14.2
TTAGGTATCGATTTTCGGTTAGTGCTA	7.2
TCACATTTCCTTTACATACTGTGCTAG	1.7
TTAGGTATCCTTATTCTTTAGTGCTAG	0.511
GACGAACTGTGTCTCGAGACGTGCTAG	0.21
TCATTGATGGCTCTCTGACTGTGCTAG	-0.728
TTAGATTTAGGGACTGGATTAGTGCTA	-0.215
GACTATATCAGTTTCGAGACGTGCTAG	4.17
AAAAATTAGTGTTTCCCCTAGTGCTAG	0.558
TCATTTTTCCCTCTGGAAAAGTGCTAG	-0.0574
TTTGCTCTGTGCATAGTTCTGTGCTAG	-0.331
TTAGGTCCCCTTTTCCTTTAGTGCTAG	0.52
TTAGATATCGGGTACCGATTAGTGCTA	0.0952
TTAGGACTGCTTATGCTTTAGTGCTAG	-0.236
ACCATTTTTTTTCACTATTGGTGCTAG	2.21
TAAGAACTGGGGTTTCGATTAGTGCTA	5.8
AGTATGAGTTGCCCTTTCCCGTGCTAG	0.274
AACGGTATCGACTATCGGGACGTGCTA	4.87

Set 4
Target: RNA binding protein fox-1 homolog 2, RRM domain, GST-SBP tag (RBFOX2, Homo sapiens, UniProt O43251-10, residues 100-194)
Technique: RNA Bind-n-Seq
Molecule type: RNA
Matrix: in vitro
Tested at: 365 nM
Notes: natural RNA segment, single round, ends assumed
Baseline: no-protein control
Direction: higher = stronger binding
Shared flanks, not repeated: GGGAGUUCUACAGUCCGACGAUC … UGGAAUUCUCGGGUGCCAA
Construct (chain): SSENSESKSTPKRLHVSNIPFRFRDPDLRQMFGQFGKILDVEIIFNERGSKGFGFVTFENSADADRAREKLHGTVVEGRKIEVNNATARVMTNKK
Sequence	RBNS enrichment (R)
UGGCGGAGAUGCUUCUAAGGCAUGGUCGGGGGAGAGGGCCAACAACUGUCCCUCCUUGAGCACCAGCCCCACCCAAGCAAGCAGACAUUUAUCUUUUGGGUCUGUCCUCU	0.331
GCUGGAAAAAUUAAGGGGAAAAGAGAUUAAGUGGUCCCCAAUGGAACACAGCUGUCUUAUGCAGGGCUCACAGUUACCAUGUUCAGUACAUUGUUAAAGUAACUUGGCUU	0.948
UGGCAUCUUUUUAAUACCAGGAACCCAGCGGCUCUAGCCACUGAGCGGCUAAAUGAAAUAAAGUGGAAAAAAAAAAAAAGGAAAAAACCAAAAGCAUAAAAAACCACAGC	0.618
CACAGCAACCCUAAUAGGUAUCUCCAUUUUACAUAGGUAAAAACUGAGGCUACAAACAAUCUAUGGUUCCAAAUCCUAUGUGCUUACUGCCGUCUUCUCUUAGAAGGGGA	0.248
CCUUAGCAGCUCAGUAGAUUCUUCAGGAUAACAGUAAAUGGCUUAUUGUAACUUGAAACACUAUAUUUUGUCUUUCCUGUGAGUAGCUCUAAGUUUGAGAGAAACCACUC	0.372
AGGUGGUGCUCCAGUGGUUCACAGAAAACAGCAAAUAGUCCCCAGCCCUUGAAGUCACCCGGCCCCCAUGCAAGGUGCCCACAUGUGUCCAUCCCAGCGGCUGGUGCAGG	0.554
CUGGGUAUGAAUUCCCUGACACACAUUCAUGUCAACAUAUGUAGCAAAUUUUGUGAAAACAUAACAAUUUGAAGCUUCUGUAAUUUUGAGCACUGCUCUAACAACAAGCA	0.74
AACAGUCUCAAGGGCUGAAGCCCAUUCAUUUUAUAAGCUGUCACCAUGGGCUGCUGCUUCCUCUUGCCUUAAAAGUACACUCUCCAGGUGUGUCAGGGACUCUGUUUACU	0.39

A few entries again (set 2):
Sequence	E-score
GCAGTCTA	-0.114
CAGAAACC	0.111
TAGCGCAA	0.0284
CATCCTCC	-0.129
ACATTTAT	-0.305
CGTTTAAG	-0.0469
CAACGTGA	-0.3
CCGATACG	-0.0978
